Measurements collected from several papers.
Parts stem from different laboratories: compare values within a part only. Substitutions count along the parent as printed.

Study 1
Target: RING finger protein unkempt homolog, zinc fingers 1-6, GST-SBP tag (UNK, Homo sapiens, UniProt Q9C0B0, residues 30-357)
Method: RNA Bind-n-Seq
Form: RNA
Matrix: in vitro
Concentration: not given
Setting: RNA with constant flanks, human and mouse sites, ends assumed
Relative to: input RNA pool
Direction: higher = stronger binding
Shared flanks, not repeated: GGGAGUUCUACAGUCCGACGAUC … CAACAGAGGAUUGAGCAUCA
Target sequence (chain): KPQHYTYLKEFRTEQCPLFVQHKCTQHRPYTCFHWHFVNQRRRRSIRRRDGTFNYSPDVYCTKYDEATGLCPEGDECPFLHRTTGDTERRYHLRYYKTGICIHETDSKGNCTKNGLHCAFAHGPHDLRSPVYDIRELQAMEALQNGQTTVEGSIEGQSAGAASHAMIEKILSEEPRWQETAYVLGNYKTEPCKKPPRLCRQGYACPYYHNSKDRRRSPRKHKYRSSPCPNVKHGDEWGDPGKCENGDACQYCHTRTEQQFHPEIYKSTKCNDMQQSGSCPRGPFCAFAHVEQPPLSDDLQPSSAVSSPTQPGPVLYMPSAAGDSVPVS
`ACAGGGAAUGGGCGGCGGCUCCACCUGGGGAUUCCUGAGGCCGUGUUUGUGGAAGAUGUAGAUUCCUUCAUGAAACAGCCUGGGAAUGAGACUGCAGAUACAGUAUUAAAGAAGCUGGAU` gave a bound/input enrichment of 0.278 ratio.
With `CCAGAAGUGGAAUCUUUACAGGACUAUAAGAAUACAUUUCCCAAAUGGAAACCAGGAAGCCUAGCAUCCCAUGUCAAAAACUUGGAUGAAAAUGGCUUGGAUUUGCUCUCGAAAAUGUUA` the bound/input enrichment was 0.0933 ratio.
With `GUUGCUAUGCAACUCUUGCAGAUCCUGGAGCCGAAGAUGUUUCGCUAUGCUCACAAACUGGAGGUUCAGAGAACGGAUGGAGUCCUCAGUCAGCUGUCCCCGCUGCCACAUCUCUAUUCU` the bound/input enrichment was 0.24 ratio.
The bound/input enrichment of `ACUGGUUUUGGAUUAGGAAUUGUUUUCUCACUUACCUUCUUUAAAAGAAGAAUGUGGCCAUUAGCCUUCGGUUCUGGCAUGGGAUUAGGAAUGGCUUAUUCCAACUGUCAGCAUGAUUUC` is reported as 0.622 ratio.
`AAAUAAAUAUUUAAUUUUUUUAAUUGCUCUUGUAUAAUCAGAUGCCCUUUUUAGUAUUAUUUUAGAAGCAUUUGGGAGGAUUUUGCCUAAAAUACAAUUUAUUGGGGGAGACUAGAUUUU` has a bound/input enrichment of 11.5 ratio.
For `GAGGCAGCUGCUCAGCUCCUGGAAUCUUCAGUUCAAAACCUUUUUAAGCAGGUAGAUUUAAUAGACCUAGUACGCUGGAAGAUUUUAAAAGAUAAACAUAUCCCUCAAUUUUUACAAGAA`, the bound/input enrichment was 1.1 ratio.
With `AGUCAGCACAGCCGCGGCGGCUGCAGCAGCGAGAGUUCUAGGGUUGCCCUUAAUUGCUGUAGUAACCUGGGUCCGGGGCCUCGGUGGUGCUCCGAUGUCCCUCACCCACCCCUGAAGAUC` the bound/input enrichment was 0.1 ratio.
`GGGCCGCAGACACGUAGGCUGGGGUGAGGAGUGUCUGCUGUCACCCUCUACUCUCCAGCUUUAGUCUUAUAAAUGUAGUGAUAGGAUUCCUUGUUGCUUGGUCCCCAAAGCCUUAUACUU` gave a bound/input enrichment of 1.11 ratio.

Study 2
Target: RNA binding protein fox-1 homolog 2, RRM domain, GST-SBP tag (RBFOX2, Homo sapiens, UniProt O43251-10, residues 100-194)
Method: RNA Bind-n-Seq
Form: RNA
Matrix: in vitro
Concentration: 365 nM
Setting: natural RNA segment, single round, ends assumed
Relative to: no-protein control
Direction: higher = stronger binding
Shared flanks, not repeated: GGGAGUUCUACAGUCCGACGAUC … UGGAAUUCUCGGGUGCCAA
Residues (chain): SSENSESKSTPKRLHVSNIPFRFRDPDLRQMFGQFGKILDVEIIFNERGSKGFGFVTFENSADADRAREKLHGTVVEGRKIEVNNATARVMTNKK
For `CUCCUUAGGCAGCCAGGAAUUGGAACCCCCAUGCCCGCAGCACGUUUUUCUUAUGAUCAGGGAGUGUGCCUAAGGUGCCCCCUAGUUUGGGCAAGGCCUGGUUCCCUCAC`, “RBNS enrichment (R)” read 5.34.
`UGCUGCUAAUUCCCAACAUUUCUUAAAUUAUUUUAUAUCAUACAGUUUUCAUUGAUUAUAUGGGUAUAUAUUCAUCUAAUAAAUCAGUGAACUGUUCCUCAUGUUGCUGA` — result for “RBNS enrichment (R)”: 1.01.
Under “RBNS enrichment (R)”, `CGGUGGAGGCCACGCCGUCGGUCGGGAACGGUCGCGUCGCCCGGGUCGCCGCCGCCGCCGCCGCCGUCAUCCUCGCCUCUCGCUUCCCUCUGGGAGCUGCGCGCGCUUCA` is recorded as 0.222.
Under “RBNS enrichment (R)”, `UCCUCCUUUUGGAGUCAGGCUCUAUGCCUAAACAGACUCAACAGAACCUGCACAUGGAGGACACAUCCAAUACCAGUUCUCCACAUUCCAACCUCUCUCUCUCUCUCUCA` is recorded as 1.26.
`AUUUGAGUUUAUUCAGACUUAAUUUAGUGCCCUACUUGUGUUAUAAUGGAAACUUAGAAGGUCAGAACUCUGUAAUGGACAUAAACUGUUAAGUACUCAGGCAUGACUAC`: “RBNS enrichment (R)” 0.646.
`GUGGAAUAAGGAAACCCAGUGGAGCUAUUACACUUUUAAAUGUUCUAGCCAAAACAAAUUGCCAGUAUGGUUGAGGAAUUGAAUAUCAGAUGGCAUGCAGUCUCCCCUCC` — result for “RBNS enrichment (R)”: 1.5.
Under “RBNS enrichment (R)”, `GCUCAGUUACACAGCUUGUCUGUGACUGGGAAGCCCAUUUUGUGUCAUUUCUGCACACCUGUCCGCUGUUGACACCUUAUUAGAGGCACUGCAUUUUGGUUUCACAAUUC` is recorded as 0.833.
`ACAAAACGGUAAUGAACAGAUAGCACUGGGGCAGAAUAUGCAUGCAUUUUGUAACGUCCAGUGUGGCGUUGAAUAGAUGUGUAUUUCCUCCCCUGCAGAAAAUAAGCACA`: “RBNS enrichment (R)” 1.24.

Study 3
Target: ABI1, truncated, D143A, DHFR fusion (Arabidopsis thaliana)
Method: DHFR PCA, deep sequencing
Matrix: yeast
Setting: methotrexate growth selection, single substitutions
With: (+)-ABA 17 µM
Relative to: wild-type fitted maximum
Direction: higher = stronger binding
Starting sequence: PYL1, truncated, DHFR fusion (Arabidopsis thaliana); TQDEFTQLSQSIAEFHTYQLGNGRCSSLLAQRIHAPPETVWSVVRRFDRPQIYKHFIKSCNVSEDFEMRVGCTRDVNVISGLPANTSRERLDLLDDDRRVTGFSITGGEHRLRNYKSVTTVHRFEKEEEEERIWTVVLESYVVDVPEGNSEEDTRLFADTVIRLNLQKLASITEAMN; partner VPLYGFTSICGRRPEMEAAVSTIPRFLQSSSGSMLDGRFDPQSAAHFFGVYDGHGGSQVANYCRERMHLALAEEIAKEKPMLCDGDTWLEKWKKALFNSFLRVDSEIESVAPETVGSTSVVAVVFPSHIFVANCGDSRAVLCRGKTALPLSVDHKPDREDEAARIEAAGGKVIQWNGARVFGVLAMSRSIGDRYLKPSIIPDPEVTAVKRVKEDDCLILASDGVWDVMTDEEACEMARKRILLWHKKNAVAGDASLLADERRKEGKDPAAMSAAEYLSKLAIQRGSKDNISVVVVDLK
`A84V` — result for “relative binding score”: 10.1%.
`R49T`: “relative binding score” 77.2%.
For `D75T`, “relative binding score” read 94.8%.
For `Q51E`, “relative binding score” read 77.9%.
Under “relative binding score”, `I79L` is recorded as 41.9%.
`I33H` — result for “relative binding score”: -4.41%.
For `N149V`, “relative binding score” read 24%.
For `Q19I`, “relative binding score” read 75.9%.
For `R113E`, “relative binding score” read 74%.
`T17G` — result for “relative binding score”: 35%.
Under “relative binding score”, `S87A` is recorded as 47.9%.
Under “relative binding score”, `V78Y` is recorded as 60.3%.
`T17Q` — result for “relative binding score”: 61.6%.
For `E131Q`, “relative binding score” read 86.9%.
`R88V` — result for “relative binding score”: 88.7%.
`N114H` — result for “relative binding score”: 69.6%.
For `Q167P`, “relative binding score” read -6.75%.
`A170N`: “relative binding score” 21.5%.
`G21Q`: “relative binding score” 81.5%.
For `L112A`, “relative binding score” read -1.98%.
For `V118D`, “relative binding score” read 6.58%.

Study 4
Target: PABPC1L2, full length, GST fusion (mouse, UniProt A0ABA7IW68)
Method: RNAcompete
Form: RNA
Matrix: in vitro
Concentration: 20 nM
Setting: 7-mer, probes averaged, single round
Relative to: mean of 7-mers
Direction: higher = stronger binding
Residues (chain): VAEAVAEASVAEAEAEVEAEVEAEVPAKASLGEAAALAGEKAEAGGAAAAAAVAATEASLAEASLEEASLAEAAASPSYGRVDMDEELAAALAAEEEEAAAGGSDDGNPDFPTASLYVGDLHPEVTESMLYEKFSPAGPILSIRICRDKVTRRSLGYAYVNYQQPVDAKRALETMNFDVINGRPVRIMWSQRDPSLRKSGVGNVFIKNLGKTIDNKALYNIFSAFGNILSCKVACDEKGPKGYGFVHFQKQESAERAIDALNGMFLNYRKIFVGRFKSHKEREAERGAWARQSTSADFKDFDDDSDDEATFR
The 7-mer Z-score of `UAACGCU` is reported as -0.188.
The 7-mer Z-score of `UCUGUCA` is reported as -0.286.
For `UCUUAUG`, the 7-mer Z-score was -0.286.
The 7-mer Z-score of `AGGCGAC` is reported as 0.256.
With `GCGCGUG` the 7-mer Z-score was -0.258.
The 7-mer Z-score of `CAGACUU` is reported as -0.208.
The 7-mer Z-score of `GGGAAAG` is reported as 0.35.
For `CAAUAAC`, the 7-mer Z-score was 0.00979.
`UCAGCUG` has a 7-mer Z-score of -0.293.
The 7-mer Z-score of `GUCGCUA` is reported as -0.393.
The 7-mer Z-score of `CCUGAAG` is reported as -0.262.
`CGCUGAU` has a 7-mer Z-score of -0.211.
With `CCCCAGC` the 7-mer Z-score was -0.157.
`GCCCUAA` gave a 7-mer Z-score of -0.0645.
`GUGGCAA` gave a 7-mer Z-score of 0.321.
For `UCGGAGC`, the 7-mer Z-score was 0.117.
With `AAUUCUG` the 7-mer Z-score was -0.0863.
For `AAACCGG`, the 7-mer Z-score was 1.06.
The 7-mer Z-score of `UAGGGGC` is reported as 0.323.
The 7-mer Z-score of `UAUCAAA` is reported as 0.588.
`AGAUUAG` gave a 7-mer Z-score of -0.0536.
With `UACUACC` the 7-mer Z-score was -0.273.
The 7-mer Z-score of `GAUCGUG` is reported as -0.307.
`UAGGGCU` has a 7-mer Z-score of 0.0243.
For `AGAUCUG`, the 7-mer Z-score was -0.257.

A few entries again (study 4):
For `CAAUAAC`, the 7-mer Z-score was 0.00979.
The 7-mer Z-score of `CCUGAAG` is reported as -0.262.
The 7-mer Z-score of `UAUCAAA` is reported as 0.588.
The 7-mer Z-score of `GAUCGUG` is reported as -0.307.
